Measurements of several laboratories.
Every numbered part comes from another study and shows a few of its results, in no order. Changes are numbered by the printed parent chain.

Series 1
Target: Histone acetyltransferase KAT6A, both winged helices, GST fusion (KAT6A, Homo sapiens, UniProt Q92794, residues 1-181)
Method: protein binding microarray
Form: double-stranded DNA, one strand shown
Sample: in vitro
Tested at: not given
Setting: 8-mer, flanks averaged, mean of 2 arrays, mostly near background
Baseline: not given
Direction: higher = stronger binding
Endpoint: E-score
Residues (chain): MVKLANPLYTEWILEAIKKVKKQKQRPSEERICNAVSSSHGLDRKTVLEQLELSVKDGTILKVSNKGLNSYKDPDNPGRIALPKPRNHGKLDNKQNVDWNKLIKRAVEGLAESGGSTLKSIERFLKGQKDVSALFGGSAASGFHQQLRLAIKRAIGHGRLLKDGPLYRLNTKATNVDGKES
GAGCACTA: -0.0275
CTCTCCAC: -0.256
CACTATCA: -0.129
CGAAGCCC: -0.0415
CCCTAAGG: -0.16
AAGCCCTC: -0.0821
CCGACGAA: 0.159
CCGGCACA: 0.197
GTGGTGTA: -0.129
AAACCGCT: 0.216
TTTCAAAA: -0.106
TCATTACA: 0.044
AACAATCC: 0.025
ATAATACC: -0.0516
CTTGCATA: -0.23
CGGCTACA: 0.154
ATATGGAG: -0.0844
ACCATACG: 0.105
ACAATAAC: -0.0682
GGGGGTGA: -0.0656
ATACCGGC: 0.307
CGCCCCCG: 0.257
ACCGACGA: 0.0441
TCCCAGAA: -0.0903
ACTGCCGA: 0.105

Series 2
Target: ABI1, truncated, D143A, DHFR fusion (Arabidopsis thaliana)
Method: DHFR PCA, deep sequencing
Sample: yeast
Setting: methotrexate growth selection, single substitutions
Added: (+)-ABA 1.4 µM
Baseline: wild-type fitted maximum
Direction: higher = stronger binding
Endpoint: relative binding score
Starting sequence: PYL1, truncated, DHFR fusion (Arabidopsis thaliana); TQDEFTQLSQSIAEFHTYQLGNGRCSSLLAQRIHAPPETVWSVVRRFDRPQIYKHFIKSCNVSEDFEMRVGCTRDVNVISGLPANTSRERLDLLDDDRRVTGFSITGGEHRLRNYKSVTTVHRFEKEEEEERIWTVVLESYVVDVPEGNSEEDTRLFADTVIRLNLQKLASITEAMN
F5T: 37.1%
P36G: 5.81%
P146E: -11.2%
E89M: -5.04%
T39Q: 48.7%
S42M: 31.6%
R132C: 67.8%
A84I: 13.5%
H110K: 12.3%
E14L: 14%
C72Q: 56.4%
Q51A: -1.72%
W134L: 60.3%
V118I: 52%
R74W: -12.4%
T120Y: -10.3%

Series 3
Target: Interferon regulatory factor 3, full length, phosphomimetic (IRF3, Homo sapiens, UniProt Q14653, residues 1-427, S386D/S396D/S398D/S402D/T404D/S405D)
Method: protein-binding microarray
Form: double-stranded DNA, one strand shown
Sample: in vitro
Tested at: 2540 nM top
Setting: 60-bp whole probe
Added: salmon DNA 0.4 mg/ml
Baseline: random background probes
Direction: higher = stronger binding
Endpoint: fitted relative affinity
Constant ends, left off below: GCCTAGCAC … GTCTTGATTCGCTTGACGCTGCTG
Target sequence (chain): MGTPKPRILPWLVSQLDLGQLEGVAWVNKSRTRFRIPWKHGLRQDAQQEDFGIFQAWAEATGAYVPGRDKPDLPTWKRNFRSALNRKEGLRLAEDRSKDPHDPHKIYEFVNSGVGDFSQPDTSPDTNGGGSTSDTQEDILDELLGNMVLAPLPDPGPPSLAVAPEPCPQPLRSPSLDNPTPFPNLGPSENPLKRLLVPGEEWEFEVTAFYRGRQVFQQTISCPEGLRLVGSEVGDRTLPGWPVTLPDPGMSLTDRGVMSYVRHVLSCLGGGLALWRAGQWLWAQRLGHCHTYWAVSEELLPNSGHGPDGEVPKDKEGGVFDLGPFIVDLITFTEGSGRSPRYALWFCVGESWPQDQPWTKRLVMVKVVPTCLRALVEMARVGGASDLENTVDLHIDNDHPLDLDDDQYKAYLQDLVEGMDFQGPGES
ACCATTTTGGTTTTCCTTATGTGCTAG: 4.14 z-score
GACAATTTCAGTCTCGAGACGTGCTAG: 2.08 z-score
TCATGTGTCAGGTTTACTACTGTGCTA: 0.826 z-score
TTAGGTACCGGTATCGGTTAGTGCTAG: 3.11 z-score
ACTTCCCTCGGGTTGCGGAGCGTGCTA: 0.537 z-score
TCATTTTCGTTTTTATTATTGTGCTAG: 6.73 z-score
GTAGGTTTCCTTTCCCTTTAGTGCTAG: 10.8 z-score
TCACATTGCCTGTTTTTCACTGTGCTA: 0.489 z-score
GACGGTTTCGTTATCGGGACGTGCTAG: 6.42 z-score
TCAGGTATCGGGTATCGGTTAGTGCTA: 2.37 z-score
GACGATTTCAGTCTCGAGATGTGCTAG: 2.38 z-score
CAGCCAATCAGGACTCAGGGAGTGCTA: -0.481 z-score
GACGATCTCAGACTGGAAACGTGCTAG: 0.369 z-score
TTAGGTTTCGGTTTAGGTTAGTGCTAG: 9.39 z-score
TTAGGTCTCGGTCGCGGTTAGTGCTAG: -0.289 z-score
GACGATTTCAGACTGAAGACGTGCTAG: 1.03 z-score
AAAACTAGGGCATTTAGAAAAGTGCTA: -0.106 z-score
CACGATATCAGTTTCGAGACGTGCTAG: 3.25 z-score
CACGGTCTCCTACTGCTGACGTGCTAG: 0.918 z-score
GCAGGTCTGGACCCAGACTCGTGCTAG: 0.0501 z-score
TCAAGACTCTCTTGTCTGACTGTGCTA: -0.802 z-score
TTAGGTATCGGTATCAGTTAGTGCTAG: 4.24 z-score
TTAGGATTCCTTTCCCTTTAGTGCTAG: 6.63 z-score
TCACTAATCTCACTCTGACTGTGCTAG: 0.391 z-score

Series 4
Target: CCND2, cyclin fold, Cln2 fusion (human)
Method: yeast growth competition, sequencing
Sample: yeast
Setting: weak parent motif
Baseline: not given
Direction: higher = stronger binding
Endpoint: normalised enrichment score
Starting sequence: CDKN1B docking peptide (human); PSACRNLFGPVDH; partner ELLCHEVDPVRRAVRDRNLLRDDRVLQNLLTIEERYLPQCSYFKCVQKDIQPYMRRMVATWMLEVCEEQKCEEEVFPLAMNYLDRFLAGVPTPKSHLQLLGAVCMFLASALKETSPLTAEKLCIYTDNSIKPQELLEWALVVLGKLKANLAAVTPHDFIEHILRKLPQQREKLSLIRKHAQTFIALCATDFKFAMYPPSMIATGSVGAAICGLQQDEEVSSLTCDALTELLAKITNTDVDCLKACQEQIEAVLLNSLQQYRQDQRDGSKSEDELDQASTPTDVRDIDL
F8D: -0.11
A3H: 0.215
P1R: 0.291
A3K: -0.234
S2D: 0.0957
H13E: 0.0729
C4N: 0.225
G9Y: 0.532
V11S: 0.0567
R5A L7A: -0.0311
G9V: 0.0382
D12I: 0.131
S2L: 0.202
D12V: 0.112
L7S: 0.114

Series 5
Target: RNA binding protein fox-1 homolog 2, RRM domain, GST-SBP tag (RBFOX2, Homo sapiens, UniProt O43251-10, residues 100-194)
Method: RNA Bind-n-Seq
Form: RNA
Sample: in vitro
Tested at: 365 nM
Setting: natural RNA segment, single round, ends assumed
Baseline: no-protein control
Direction: higher = stronger binding
Endpoint: RBNS enrichment (R)
Constant ends, left off below: GGGAGUUCUACAGUCCGACGAUC … UGGAAUUCUCGGGUGCCAA
Residues (chain): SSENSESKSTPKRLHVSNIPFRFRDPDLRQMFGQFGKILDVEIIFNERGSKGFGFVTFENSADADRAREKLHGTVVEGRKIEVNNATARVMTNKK
UGGCUACUGCUGAGUCCUCUGGGGUUGAGGGAAGGCGAGCCGGGCAGGGGCCAUGUCAUGUUAUUGGGACUUGGGGCUAAGUGGGAGGUCCUGUCCUUCCCCUCAUCUCU: 1.24
AUAUAGAAAGAAAGACAAUAAGAACACGAGAAACGCCCCCCCCCACCCCCCGGCAUCCUGGAGAGCAUGAGCUGUUUCCAAAAUCGGAUUCUCAGCUGUCACUGUUUCUU: 0.877
UGGCUUCCGCAGCUACCGUCUGCACGGUGAGAGGGCACGGGCACACGGUUCGGGCUGGCGUGCAGCUCUCCCAGCCAGCCACGCUCUGCUCAGGCCUGGAAGUGAAAGCC: 0.683
UUCAGUAUUAUGUUCAAAAGACAUUUUUAUCCUGAUCAUAAUUAAUUUGAAAACUCUUUAAGUUCAUGUUAUACAAGAUGAUUUACUGUAUUAUACUUUUCCUUUUUUAU: 0.793
AUCUGUCUAGAAUCCUGCUUUACAGGAUCAUGUAAAUGCUCAAAGAUGUAAUGUAGUUCUUUGUUCCUGCUUUCUCUUUCAGUAUUAAACUCUCCUUUGAUAUUAUGUGG: 0.44
UAUGGCUGACCCACUCCAGGCCAAGCAGCUUAACAGCAGGCUUGCUGUUAAGUCCCAAGUCCGUCAUGGGGUCAGGUUACACCCAGAGGUGUUUUCACUGUGGGGUUCCA: 0.225
GUGCCGGGCAGGAGCAUGGGGUGCUUGGUUGUUUCCUUCCUAAUAAAAUAAACGCGGGUCGCCAUGCGUUGGGCCUCUUGUCGCUCAUUUCUGCGCUGGGCUUUAGGCGC: 0.539
CGGAUUUGUCUGCAAGACUUUCUCCACGUGCCCUUGACAUUGGAAUCACUUGUGGGGCCUCCUAGGGUGUUUGGAGGUGAUAUGGUGUCUAUCAUGUGCAUAGGCAGAAG: 0.537
CUCCCCUAUCACUUCAAGUGUUUAUACCUGAGUUUCUUAGGAAGAAAGUAAGUCUGAUGGCUUGUUGUUUUGCUGUAGUUGUUUUGAAAAGCCGAAAUCAAAUGGUCAAG: 0.987
CAUAACAUGCCUUUUUUGUAUCAAAUGUACUAAGACUUGCCUAUAUAUAGUGCCACUGUGCCUUCUCAUUUGUUUCUGAAUUUUCCACAUUUUAUUACAAAAUGUAGAAA: 0.474
UUUCAGUGACAAAUCAGAGUUUCUUACAAGUUAUUGUCCUGCUCCCUUCCAAGUUGUCUUGAAGAAUCCUUGCUGCUAACUCUGGAUCCUGCUUUUCCUAUAGUCAGAGG: 0.527
CUGUCCGCUGUAUCUCCUCUGUGGGAGUAAACGCCACACUGUGUUUGUGAGUUCAGCACAGGGCCCAGAAGCUGCUGGUUUUAAAUAUUUACUUUCCCAGGAGGUGGGUU: 0.449

Further values, each from its own experiment
PhoQ, residues 284 288 289 292 302 303 AGGLSV  fold induction (PhoP, residues 12 14 15 18 19 VHSCL (Escherichia coli, UniProt P23836); Sort-seq, measured: YFP reporter; E. coli; PhoQ-PhoP variant library, added: 10 µM Mg2+; baseline: high Mg2+ state, higher = stronger signaling): 1.49

Some of these lines once more (series 1):
GTGGTGTA: -0.129
AAACCGCT: 0.216
TTTCAAAA: -0.106
TCATTACA: 0.044
AACAATCC: 0.025
ATAATACC: -0.0516
